Measured values gathered from unrelated publications.
Lines come from different studies, so protocols differ. “And” joins repeats or separate records; there may be more than shown. ± gives the spread as reported.
GPR84: G-protein coupled receptor 84 (GPR84, Homo sapiens, UniProt Q9NQS5)
UniProt Q9NQS5, sequence (whole entry, looked up): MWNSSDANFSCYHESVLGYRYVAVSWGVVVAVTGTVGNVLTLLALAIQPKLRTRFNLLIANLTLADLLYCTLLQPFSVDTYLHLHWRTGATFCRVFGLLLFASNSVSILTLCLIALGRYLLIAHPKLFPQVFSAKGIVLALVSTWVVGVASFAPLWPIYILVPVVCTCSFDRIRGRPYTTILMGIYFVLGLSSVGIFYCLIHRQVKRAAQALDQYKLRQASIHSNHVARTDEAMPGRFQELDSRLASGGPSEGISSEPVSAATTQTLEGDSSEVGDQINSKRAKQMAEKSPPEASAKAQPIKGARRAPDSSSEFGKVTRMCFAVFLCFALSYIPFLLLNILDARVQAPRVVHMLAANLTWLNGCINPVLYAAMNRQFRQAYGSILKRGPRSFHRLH
ESR2: Estrogen receptor beta (ESR2, Homo sapiens, UniProt Q92731)
UniProt Q92731, sequence (whole entry, looked up): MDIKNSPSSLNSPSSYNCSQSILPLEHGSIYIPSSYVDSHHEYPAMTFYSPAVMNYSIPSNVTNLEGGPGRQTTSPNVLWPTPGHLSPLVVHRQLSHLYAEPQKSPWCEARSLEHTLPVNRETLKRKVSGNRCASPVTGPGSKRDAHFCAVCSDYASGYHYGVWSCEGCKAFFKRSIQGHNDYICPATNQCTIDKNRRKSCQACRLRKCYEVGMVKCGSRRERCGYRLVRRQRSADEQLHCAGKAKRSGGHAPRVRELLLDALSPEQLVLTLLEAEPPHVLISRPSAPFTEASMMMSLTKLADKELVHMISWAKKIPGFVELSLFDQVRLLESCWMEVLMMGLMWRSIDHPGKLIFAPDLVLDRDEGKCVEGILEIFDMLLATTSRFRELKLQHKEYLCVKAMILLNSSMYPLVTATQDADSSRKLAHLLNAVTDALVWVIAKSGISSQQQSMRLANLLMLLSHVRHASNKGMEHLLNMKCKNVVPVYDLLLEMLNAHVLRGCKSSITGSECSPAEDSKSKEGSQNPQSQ
MIF: Macrophage migration inhibitory factor (MIF, Homo sapiens, UniProt P14174)
UniProt P14174, sequence (whole entry, looked up): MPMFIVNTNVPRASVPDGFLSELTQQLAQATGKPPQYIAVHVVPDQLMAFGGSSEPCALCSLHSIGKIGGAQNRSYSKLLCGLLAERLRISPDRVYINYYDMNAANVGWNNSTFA
HTR2C: 5-hydroxytryptamine receptor 2C (HTR2C, Homo sapiens, UniProt P28335)
UniProt Q16774, sequence (whole entry, looked up): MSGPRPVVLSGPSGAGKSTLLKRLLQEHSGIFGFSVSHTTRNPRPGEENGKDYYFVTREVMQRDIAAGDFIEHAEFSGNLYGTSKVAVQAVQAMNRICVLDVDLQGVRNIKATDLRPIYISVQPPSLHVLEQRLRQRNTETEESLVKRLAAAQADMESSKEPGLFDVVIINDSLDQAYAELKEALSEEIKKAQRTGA
UniProt P28335, sequence (whole entry, looked up): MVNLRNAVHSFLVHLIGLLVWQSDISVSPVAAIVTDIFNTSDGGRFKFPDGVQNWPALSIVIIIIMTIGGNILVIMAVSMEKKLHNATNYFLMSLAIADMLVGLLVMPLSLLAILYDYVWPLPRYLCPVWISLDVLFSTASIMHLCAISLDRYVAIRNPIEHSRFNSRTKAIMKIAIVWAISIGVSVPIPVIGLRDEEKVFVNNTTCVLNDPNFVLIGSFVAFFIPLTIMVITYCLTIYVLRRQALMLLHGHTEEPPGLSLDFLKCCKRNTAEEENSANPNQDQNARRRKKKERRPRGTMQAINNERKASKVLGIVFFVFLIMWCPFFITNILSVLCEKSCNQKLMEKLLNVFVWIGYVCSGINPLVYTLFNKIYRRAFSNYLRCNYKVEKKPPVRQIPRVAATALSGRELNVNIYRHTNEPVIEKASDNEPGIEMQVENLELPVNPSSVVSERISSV
UniProt P34995, sequence (whole entry, unmodified, looked up): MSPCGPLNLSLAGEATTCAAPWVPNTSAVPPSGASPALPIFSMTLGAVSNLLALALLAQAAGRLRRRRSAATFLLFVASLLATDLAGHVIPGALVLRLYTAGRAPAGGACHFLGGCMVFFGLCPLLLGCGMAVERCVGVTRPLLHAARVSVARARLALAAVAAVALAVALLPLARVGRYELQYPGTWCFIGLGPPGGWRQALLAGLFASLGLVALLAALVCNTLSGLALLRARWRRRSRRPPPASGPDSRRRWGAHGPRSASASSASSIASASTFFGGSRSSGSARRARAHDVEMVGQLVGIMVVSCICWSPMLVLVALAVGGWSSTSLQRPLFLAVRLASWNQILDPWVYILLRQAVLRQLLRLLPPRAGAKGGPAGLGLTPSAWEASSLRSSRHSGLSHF
UniProt P14618, sequence (whole entry, looked up): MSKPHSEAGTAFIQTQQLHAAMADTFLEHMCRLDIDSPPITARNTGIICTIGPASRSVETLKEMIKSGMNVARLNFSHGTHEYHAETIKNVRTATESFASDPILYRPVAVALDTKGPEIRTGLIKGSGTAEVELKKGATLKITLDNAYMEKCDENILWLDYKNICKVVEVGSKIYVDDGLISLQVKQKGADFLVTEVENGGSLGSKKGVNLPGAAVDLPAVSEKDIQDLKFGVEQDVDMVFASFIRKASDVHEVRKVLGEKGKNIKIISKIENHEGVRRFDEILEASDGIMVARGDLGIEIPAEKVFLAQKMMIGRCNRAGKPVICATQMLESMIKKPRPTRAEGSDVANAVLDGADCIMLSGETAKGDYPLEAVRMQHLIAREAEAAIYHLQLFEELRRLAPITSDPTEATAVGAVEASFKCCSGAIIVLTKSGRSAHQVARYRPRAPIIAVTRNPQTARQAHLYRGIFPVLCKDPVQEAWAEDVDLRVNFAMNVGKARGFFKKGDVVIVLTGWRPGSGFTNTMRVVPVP
UniProt Q61184, sequence (whole entry, looked up): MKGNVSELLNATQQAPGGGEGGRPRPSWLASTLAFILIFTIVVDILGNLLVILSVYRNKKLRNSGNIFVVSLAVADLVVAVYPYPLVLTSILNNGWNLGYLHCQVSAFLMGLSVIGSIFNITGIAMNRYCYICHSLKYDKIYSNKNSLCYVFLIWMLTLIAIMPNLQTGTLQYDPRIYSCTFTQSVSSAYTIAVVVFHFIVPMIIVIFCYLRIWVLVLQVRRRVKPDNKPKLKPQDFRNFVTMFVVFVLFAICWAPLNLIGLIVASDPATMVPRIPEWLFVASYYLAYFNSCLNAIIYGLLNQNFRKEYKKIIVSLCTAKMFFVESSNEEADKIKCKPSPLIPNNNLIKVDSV
UniProt P35414, sequence (whole entry, looked up): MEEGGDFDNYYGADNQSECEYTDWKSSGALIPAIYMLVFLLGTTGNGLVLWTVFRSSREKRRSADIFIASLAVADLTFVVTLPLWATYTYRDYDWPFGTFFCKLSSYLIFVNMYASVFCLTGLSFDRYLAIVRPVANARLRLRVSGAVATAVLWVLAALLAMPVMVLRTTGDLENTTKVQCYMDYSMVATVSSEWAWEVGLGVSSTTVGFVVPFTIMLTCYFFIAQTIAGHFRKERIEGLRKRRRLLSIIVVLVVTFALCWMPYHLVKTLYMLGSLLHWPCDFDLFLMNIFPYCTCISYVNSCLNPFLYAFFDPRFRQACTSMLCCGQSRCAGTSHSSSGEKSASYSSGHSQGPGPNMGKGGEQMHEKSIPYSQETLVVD
UniProt P21731, sequence (whole entry, looked up): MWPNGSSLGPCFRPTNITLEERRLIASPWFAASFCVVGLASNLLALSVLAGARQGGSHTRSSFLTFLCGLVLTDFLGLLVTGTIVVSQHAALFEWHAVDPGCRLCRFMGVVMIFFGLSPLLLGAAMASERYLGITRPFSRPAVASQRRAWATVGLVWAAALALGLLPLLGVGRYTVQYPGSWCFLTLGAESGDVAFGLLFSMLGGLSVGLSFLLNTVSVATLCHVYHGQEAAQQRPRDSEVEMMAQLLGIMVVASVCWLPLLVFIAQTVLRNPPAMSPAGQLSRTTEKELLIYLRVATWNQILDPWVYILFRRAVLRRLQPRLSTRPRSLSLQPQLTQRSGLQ
UniProt Q96GD4, sequence (whole entry, looked up): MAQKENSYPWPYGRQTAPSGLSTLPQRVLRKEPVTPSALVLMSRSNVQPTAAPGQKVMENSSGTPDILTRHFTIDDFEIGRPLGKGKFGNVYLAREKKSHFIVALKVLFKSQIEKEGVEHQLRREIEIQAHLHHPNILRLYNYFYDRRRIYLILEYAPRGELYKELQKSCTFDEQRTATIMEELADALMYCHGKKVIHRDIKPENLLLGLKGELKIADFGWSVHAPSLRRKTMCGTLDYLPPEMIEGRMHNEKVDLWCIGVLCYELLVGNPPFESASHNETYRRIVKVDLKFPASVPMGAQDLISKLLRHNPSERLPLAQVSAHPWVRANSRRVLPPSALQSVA
UniProt Q92633, sequence (whole entry, looked up): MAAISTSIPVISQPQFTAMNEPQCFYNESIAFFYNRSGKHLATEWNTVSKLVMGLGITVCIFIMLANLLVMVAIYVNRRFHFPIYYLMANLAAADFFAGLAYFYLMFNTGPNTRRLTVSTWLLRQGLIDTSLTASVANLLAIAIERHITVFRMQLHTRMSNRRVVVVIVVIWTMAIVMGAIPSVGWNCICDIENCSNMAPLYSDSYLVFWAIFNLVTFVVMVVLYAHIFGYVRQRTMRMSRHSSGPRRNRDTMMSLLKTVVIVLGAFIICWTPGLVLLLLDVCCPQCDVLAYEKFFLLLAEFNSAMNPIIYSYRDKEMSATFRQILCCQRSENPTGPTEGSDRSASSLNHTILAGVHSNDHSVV

For `O=c1[nH]c(NCCc2ccc(Br)cc2)c(Br)c(=O)[nH]1`, the EC50 was 6.61 µM (GPR84; agonist).
With `Nc1nc2c(ncn2[C@@H]2O[C@H](COP(=O)(O)O)[C@@H](O)[C@H]2O)c(=O)[nH]1` the reaction velocity was 0.0709 µM/s and 0.0814 µM/s and 0.0889 µM/s (GUK1 (Homo sapiens, UniProt Q16774); enzyme activity, NADH-coupled; 250 µM, together with: NaCl 50 mM).
For `CCCCC[C@H](O)/C=C/[C@H]1[C@H](O)CC(=O)[C@@H]1C/C=C\CCCC(=O)O`, the EC50 was 0.0865 µM (Prostaglandin E2 receptor EP1 subtype (PTGER1, Homo sapiens, UniProt P34995, V337A); IP1 accumulation, agonist; AD293; EP1 V337A mutant).
For `O=c1cc(-c2ccc(O)cc2)oc2cc(O)c(O)c(O)c12`, the EC50 was 4.38 µM (ESR2; array formation, agonist; GFP-ERβ PRL-HeLa; 1 h).
For `CCc1oc2c([C@H](CO)N(CC)CC)cccc2c1C`, the EC50 was 0.00112 µM (Lysophosphatidic acid receptor 1 (LPAR1, Homo sapiens, UniProt Q92633); Gi protein dissociation, agonist, NanoBiT; HEK293T; reduced receptor expression).
For `CCCCCCCCN(C)c1cc(=O)[nH]c(=O)[nH]1`, the EC50 was 0.0379 ± 0.0201 µM (GPR84; cAMP level, agonist).
The EC50 of `N[C@@H](CCC(=O)O)C(=O)O` is reported as 242 µM (uncharacterized protein (Ixodes scapularis, UniProt A0A0N9E2I2); ion current, agonist; no modulator present).
The EC50 of `COc1cc2c(=O)c(-c3ccc(O)cc3)coc2cc1O` is reported as 0.127 µM (ESR2; array formation, agonist; GFP-ERβ PRL-HeLa; 1 h).
`CCOCc1nc(O)c(-c2nnc(Cc3ccc(Cl)cn3)o2)c(O)c1-c1c(OC)cccc1OC` has an EC50 of 0.00023 ± 4e-05 µM (Apelin receptor (APLNR, Homo sapiens, UniProt P35414); GαoB activation, agonist, BRET biosensor; HEK293).
`O=C(O)CC[C@H](NC(=O)N[C@@H](CCCCNC(=O)[C@H](Cc1ccc2ccccc2c1)NC(=O)CCCCCNC(=O)CN1CCN(CC(=O)O)CCN(CC(=O)O)CCN(CC(=O)O)CC1)C(=O)O)C(=O)O` [gallium-68 labelled] gave an SUVmean of 1.09 ± 0.07 SUV (PET/CT; mouse, 22Rv1 xenograft, tumour; intravenous, 3.7 MBq, 1 h).
With `C[C@@H](O)[C@@H](CO)NC(=O)[C@@H](CCCNC(=N)N)NC(=O)[C@@H]1CCCN1C(=O)[C@@H]1CSSC[C@H](NC(=O)[C@H](Cc2ccccc2)NC(=O)CN2CCN(CC(=O)O)CCN(CC(=O)O)CCN(CC(=O)O)CC2)C(=O)N[C@@H](Cc2ccc(O)cc2)C(=O)N[C@@H](Cc2ccccc2)C(=O)N[C@@H](CCC(N)=O)C(=O)N[C@@H](CC(N)=O)C(=O)N1` [gallium-68 labelled] the radiochemical purity was > 99% (normal saline; 3 h, room temperature).
`Oc1ccc(-n2cc(-c3ccccn3)nn2)cc1` gave an EC50 of 11.6 ± 1.4 µM (MIF; binding, competitive inhibitor, fluorescent indicator displacement; biochemical; 10 min, MIF 100 nM, together with: 7-hydroxycoumarin indicator 50 nM).
With `CS(=O)(=O)C1(CNCc2cccc3cccnc23)CC1` the EC50 was > 1 µM (HTR2C; receptor activation, agonist, Tango β-arrestin).
For `Oc1ccc2c(c1)OC[C@]1(O)Cc3cc(O)c(O)cc3[C@H]21`, the EC50 was 0.133 µM (ESR2; array formation, agonist; GFP-ERβ PRL-HeLa; 1 h).
`O=c1cc(NCCc2ccc(F)cc2)[nH]c(=O)[nH]1` gave an EC50 of 0.0653 ± 0.0136 µM (GPR84; cAMP level, agonist; human cells).
The EC50 of `CCn1c(-c2nc3ccc(C(=O)N4CCCC(N)C4)cc3n2C)cc2ccccc21` (stereo not shown) is reported as > 39.8 µM (HTR2C; intracellular calcium, agonist, luminescence).
`COc1cc(Nc2ncc3c(n2)-c2ccc(Cl)cc2C(c2c(F)cccc2OC)=NC3)ccc1C(=O)NCCOCCOCCNC(=O)COc1cccc2c1C(=O)N(C1CCC(=O)NC1=O)C2=O` (stereo not shown) gave an EC50 of > 30 µM (Tyrosine-protein kinase HCK (HCK, Homo sapiens, UniProt P08631); binding, kinobead competition; MV4-11 cell lysate).
For `O=C(COP(=O)(O)O)[C@@H](O)[C@H](O)[C@H](O)COP(=O)(O)O`, the EC50 was 0.87 ± 0.345 µM (Pyruvate kinase PKM (PKM, Homo sapiens, UniProt P14618); pyruvate kinase activity, activator; SK-HEP1 cell lysate; together with: AIM).
For `CCn1c(-c2nc3cc(C(=O)N4CCC[C@@H](N)C4)cc(OC)c3n2C)cc2cccnc21`, the EC50 was > 39.8 µM (HTR2C; intracellular calcium, agonist, luminescence).
`COc1ccc(C(=O)N/N=C/c2ccc(O)c(F)c2)cc1` gave an EC50 of 16.3 ± 1.6 µM (MIF; binding, competitive inhibitor, fluorescent indicator displacement; biochemical; 10 min, MIF 100 nM, together with: 7-hydroxycoumarin indicator 50 nM).
The EC50 of `Nc1cccc2c1C(=O)N(C1CCC(=O)NC1=O)C2=O` (stereo not shown) is reported as > 30 µM (Aurora kinase B (AURKB, Homo sapiens, UniProt Q96GD4); NanoBRET target engagement; HEK293 expressing NanoLuc fusion; 2 h).
The inhibition of `C[C@@H]1CC(=O)NN=C1c1ccc(NN=C(C#N)C#N)cc1` is reported as 64.3% (Nedd8-cullin1 interaction; neddylation, AlphaScreen; 100 µM).
`O=c1cc(NCCCCCCCO)[nH]c(=O)[nH]1` has an EC50 of 2.14 µM (GPR84; agonist).
The EC50 of `O=c1cc(-c2ccccc2)oc2cc(O)cc(O)c12` is reported as 4.28 µM (ESR2; array formation, agonist; GFP-ERβ PRL-HeLa; 1 h).
The killing of `CC1=C(Cn2ccnn2)C(=O)c2ccccc2C1=O` is reported as 50% (Schistosoma mansoni; adult worms; 25 µM, 48 h).
For `O=C(O)CCC/C=C\CC1C2CCC(O2)C1/C=C/C(O)COc1ccc(I)cc1` (stereo not shown), the EC50 was 0.0585 µM (Thromboxane A2 receptor (TBXA2R, Homo sapiens, UniProt P21731); agonist, cell-based).
`O=c1c(O)c(-c2ccc(O)c(O)c2)oc2cc(O)ccc12` gave an EC50 of 4.33 µM (ESR2; array formation, agonist; GFP-ERβ PRL-HeLa; 1 h).
The EC50 of `CCCCCCCP(=O)(C(C)C)C(C)C` is reported as 1.33 ± 0.1 µM (TRPM8 (Gallus gallus, UniProt A0AA95FIJ1); calcium influx, agonist, calcium imaging; 32 °C).
For `COc1ccc(-c2cc(=O)c3c(O)cc(O[C@@H]4O[C@H](CO)[C@@H](O)[C@H](O)[C@H]4O[C@@H]4O[C@@H](C)[C@H](O)[C@@H](O)[C@H]4O)cc3o2)cc1O`, the EC50 was 0.424 µM (ESR2; array formation, agonist; GFP-ERβ PRL-HeLa; 1 h).
`O=c1cc(NCCc2ccccc2Cl)[nH]c(=O)[nH]1` gave an EC50 of 0.104 ± 0.021 µM (GPR84; cAMP level, agonist; human cells).
`Cc1[nH]c(=O)c(C#N)cc1-c1ccncc1` has an inhibition of 2.1% (Nedd8-cullin1 interaction; neddylation, AlphaScreen; 100 µM).
`COc1ccc(CCNc2cc(=O)[nH]c(=O)[nH]2)cc1OC` has an EC50 of 0.813 ± 0.229 µM (GPR84; cAMP level, agonist; human cells).
`OC[C@H]1O[C@@H](Oc2cc3c(O)cc(O)cc3[o+]c2-c2ccc(O)c(O)c2)[C@H](O)[C@@H](O)[C@@H]1O` gave an EC50 of 2.2 µM (ESR2; array formation, agonist; GFP-ERβ PRL-HeLa; 1 h).
With `CCCCCNc1cc(=O)[nH]c(=O)[nH]1` the EC50 was 4.79 µM (GPR84; agonist).
`COc1c(O)cc2oc(-c3ccccc3)cc(=O)c2c1O` has an EC50 of 2.67 µM (ESR2; array formation, agonist; GFP-ERβ PRL-HeLa; 1 h).
For `Cc1cccc(CCNc2cc(=O)[nH]c(=O)[nH]2)c1`, the EC50 was 0.0794 µM (GPR84; cAMP).
`COc1ccc(Br)c(CNc2cccnc2)c1` has an EC50 of 0.017 µM (Melatonin receptor type 1A (Mtnr1a, Mus musculus, UniProt Q61184); cAMP accumulation, agonist, GloSensor cAMP; HEK cells transiently transfected; together with: isoproterenol).

A few entries again:
For `CCc1oc2c([C@H](CO)N(CC)CC)cccc2c1C`, the EC50 was 0.00112 µM (Lysophosphatidic acid receptor 1 (LPAR1, Homo sapiens, UniProt Q92633); Gi protein dissociation, agonist, NanoBiT; HEK293T; reduced receptor expression).
For `CCn1c(-c2nc3cc(C(=O)N4CCC[C@@H](N)C4)cc(OC)c3n2C)cc2cccnc21`, the EC50 was > 39.8 µM (HTR2C; intracellular calcium, agonist, luminescence).
For `O=c1[nH]c(NCCc2ccc(Br)cc2)c(Br)c(=O)[nH]1`, the EC50 was 6.61 µM (GPR84; agonist).
For `O=c1cc(-c2ccc(O)cc2)oc2cc(O)c(O)c(O)c12`, the EC50 was 4.38 µM (ESR2; array formation, agonist; GFP-ERβ PRL-HeLa; 1 h).
`COc1cc(Nc2ncc3c(n2)-c2ccc(Cl)cc2C(c2c(F)cccc2OC)=NC3)ccc1C(=O)NCCOCCOCCNC(=O)COc1cccc2c1C(=O)N(C1CCC(=O)NC1=O)C2=O` (stereo not shown) gave an EC50 of > 30 µM (Tyrosine-protein kinase HCK (HCK, Homo sapiens, UniProt P08631); binding, kinobead competition; MV4-11 cell lysate).
